# Measurements of several laboratories.
# Numbered parts are unrelated; each lists some results of a single study.

# Sample 1
# Target: Prothrombin, mature alpha-thrombin (F2, Homo sapiens, UniProt P00734)
# Method: aptamer microarray, sandwich
# Form: DNA with 2'F-ANA
# Matrix: in vitro
# Concentration: 200 nM
# Notes: whole 15-mer aptamer, many near background
# With: Cy3 exosite-II aptamer, 400 nM
# Reading: higher = stronger binding
# Oligonucleotide: GGTTGGTGTGGTTGG
Modification,mean fluorescence intensity
2'F-ANA at 4 5 11 12 14,43.2 a.u.
2'F-ANA at 3 5 6 7 9 10 12 14 15,48.3 a.u.
2'F-ANA at 1 8 11 15,200 a.u.
2'F-ANA at 1 3 6 14,86.8 a.u.
2'F-ANA at 3 4 5 6 7 8 9 10 11,53.2 a.u.
2'F-ANA at 1 2 3 4 6 8 11 13 15,126 a.u.
2'F-ANA at 1 4 5 6 12 15,91.3 a.u.
2'F-ANA at 1 2 3 5 7 8 9 11 12,113 a.u.
2'F-ANA at 5 6 8 9 11 12 14 15,49.6 a.u.
2'F-ANA at 2 3 8 9 10 12 13 14 15,263 a.u.
2'F-ANA at 1 3 7 8 9 10 11 12 13 14,63 a.u.
2'F-ANA at 4 5 7 8 9 12 14 15,50 a.u.
2'F-ANA at 5 6 10 12 13,152 a.u.
2'F-ANA at 2 6 10 11 14 15,92.5 a.u.
2'F-ANA at 3 4 6 7 9 11,559 a.u.
2'F-ANA at 4 5 6 9 12 13 15,101 a.u.
2'F-ANA at 1 3 4 5 7 8 9 10 12 13 15,50.9 a.u.
2'F-ANA at 1 2 5 11 14,48 a.u.
2'F-ANA at 5 6 7 9 11 12 15,107 a.u.
2'F-ANA at 2 5 9 10 12 13 14,139 a.u.
2'F-ANA at 1 2 3 6 8 11 13 14,71.7 a.u.
2'F-ANA at 3 6 12 15,1260 a.u.
2'F-ANA at 4 9 11 12 13,374 a.u.
2'F-ANA at 1 4 5 7 8 11 12 13,74.1 a.u.
2'F-ANA at 1 3 4 6 7 11 13 14,62.6 a.u.

# Sample 2
# Target: Interferon regulatory factor 3, full length, phosphomimetic (IRF3, Homo sapiens, UniProt Q14653, residues 1-427, S386D/S396D/S398D/S402D/T404D/S405D)
# Method: protein-binding microarray
# Form: double-stranded DNA, one strand shown
# Matrix: in vitro
# Concentration: 2540 nM top
# Notes: 60-bp whole probe
# With: salmon DNA 0.4 mg/ml
# Relative to: random background probes
# Reading: higher = stronger binding
# All sequences stand within: GCCTAGCAC … GTCTTGATTCGCTTGACGCTGCTG
# Construct (chain): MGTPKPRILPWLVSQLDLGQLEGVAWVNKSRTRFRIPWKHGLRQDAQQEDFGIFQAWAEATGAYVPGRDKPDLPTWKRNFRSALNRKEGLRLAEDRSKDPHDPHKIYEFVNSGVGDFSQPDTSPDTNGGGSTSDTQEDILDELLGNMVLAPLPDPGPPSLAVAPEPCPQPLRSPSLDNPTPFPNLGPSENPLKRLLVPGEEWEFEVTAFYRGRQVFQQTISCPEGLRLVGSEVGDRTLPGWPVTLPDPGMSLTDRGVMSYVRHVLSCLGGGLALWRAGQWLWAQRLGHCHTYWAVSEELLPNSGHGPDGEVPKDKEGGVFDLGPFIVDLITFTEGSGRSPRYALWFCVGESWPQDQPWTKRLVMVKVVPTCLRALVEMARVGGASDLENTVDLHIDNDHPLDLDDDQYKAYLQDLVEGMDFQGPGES
Oligonucleotide,fitted relative affinity [z-score]
GACGGACTGGGTATCGGGACGTGCTAG,-0.28
TTAGGACTGGACTATCTGTTAGTGCTA,-0.465
TCACCTCCCTAATTCTGACTGTGCTAG,0.536
GTCTGTTTCCTCTTTCTTTGGTGCTAG,5.19
TCATCTCTAGAAATTCCCACTGTGCTA,0.675
TTAGGTCTAGGTATCGGTTAGTGCTAG,1.07
TTAAATTTCAGTATCGATTAGTGCTAG,2.87
GACGGTATCGATTATCGGGACGTGCTA,2.15
TCACATATGTTTTTCATACTGTGCTAG,1.01
ACTAGATAAGACAAAGTGATGTGCTAG,-0.159
CTAGATATCAGACTGGATTAGTGCTAG,0.348
TTAGATTTCGGTACTGGATTAGTGCTA,3.98
GATGATTTCGGGTTTCGAGACGTGCTA,2.55
GAGGGACTGGACACTGGGGACGTGCTA,-1.07
GACGATCTCTGACTGGAGACGTGCTAG,0.265
TTAGAAATCGGGTTTCGATTAGTGCTA,2.04
TTAGATATCACTCTCGATTAGTGCTAG,1.67
TTAGGTTTCGATCTCGGTTAGTGCTAG,7.59
TTAGATTCCAGGTTCGATTAGTGCTAG,1.65
TTAGGTATCGGGTTTGGGTTAGTGCTA,1.82
TTAGGTTTCGGTCACGGTTAGTGCTAG,4.85
TTAGATTTCGGGTTTCGATCAGTGCTA,3
GTAAAATTATTCTGTATATTGTGCTAG,0.164
TCAGCTTTCCAATTCTCACTGTGCTAG,4.34

# Sample 3
# Target: Ras GTPase-activating protein-binding protein 1, full length (G3BP1, Homo sapiens, UniProt Q13283)
# UniProt Q13283, sequence (whole entry, looked up): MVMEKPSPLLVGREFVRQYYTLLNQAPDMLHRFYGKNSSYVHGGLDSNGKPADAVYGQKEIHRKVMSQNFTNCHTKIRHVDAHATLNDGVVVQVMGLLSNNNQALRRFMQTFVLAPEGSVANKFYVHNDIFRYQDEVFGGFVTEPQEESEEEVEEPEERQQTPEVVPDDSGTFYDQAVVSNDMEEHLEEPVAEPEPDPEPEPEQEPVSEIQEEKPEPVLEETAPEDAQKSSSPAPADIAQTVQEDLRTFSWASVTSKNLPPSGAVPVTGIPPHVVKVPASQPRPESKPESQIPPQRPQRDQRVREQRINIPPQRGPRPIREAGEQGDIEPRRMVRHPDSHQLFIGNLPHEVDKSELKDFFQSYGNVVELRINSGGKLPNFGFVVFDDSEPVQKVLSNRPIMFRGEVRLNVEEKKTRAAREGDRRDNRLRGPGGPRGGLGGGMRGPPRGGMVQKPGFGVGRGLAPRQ
# Method: RNA Bind-n-Seq
# Form: RNA
# Matrix: in vitro
# Concentration: 200 nM
# Notes: whole 134-nt RNA, ends assumed
# With: 150 mM LiCl
# Relative to: input library
# Reading: higher = stronger binding
# Library: 7-deaza-guanosine replaces G
# All sequences stand within: GGGAGUUCUACAGUCCGACGAUC … UGGAAUUCUCGGGUGUCAAGG
Oligonucleotide,log2 enrichment
GCAGGAAGUAAAAACAAAUGGAAAUGCUUCGGAUAGUGGCAGGGGUGGGGCUUGCUAAGGAAAGGGUGGGAUGGGAGUGGGUAAAGAGUU,-0.267
UCAAGUCCUGUGCUACACAUCGUAUGUACCGAAUCGGGGUUGGGUUGGGUUGGGAAAGUAUUAUGUUACGCCGUUCGGAUCUGCACUUCC,0.183
GCAGGAAGUAAAAACAAAUGGAAAUGCUUCGGAUAGUGGCAGGGGUGAAAGUUGCUAAGGAAAGGGUGGGAUGGGAGUGGGUAAAGAGUU,0.526
UCCUCAAGUCCUGUGCUACACAUCGUAUGUACCGAAUCGGCGGCGGGCGGGGAAAGUAUUAUGUUACGCCGUUCGGAUCUGCACUUCCAG,0.862
UCCUGUGCUACACAUCGUAUGUACCGAAUCGGGGAAAAAAAGGGGAAAAAGGGGAGGGGAAAGUAUUAUGUUACGCCGUUCGGAUCUGCA,0.0915
UCCUGUGCUACACAUCGUAUGUACCGAAUCGGGGUUUGGGGAAAAAAAGGGGUUUGGGGAAAGUAUUAUGUUACGCCGUUCGGAUCUGCA,-0.279
ACCAUGCAGGUGGGCAUCUUUGGGAAGUGGGGCAAGGGGGGGAUAGGGAGGGGGGUAACACUUUGGGAACAGGUGGUCCCAGGGCGUUUC,0.371
AGUCCUGUGCUACACAUCGUAUGUACCGAAUCAAACCCAAAUUUUUUUAAAUUUAAAAAAGUAUUAUGUUACGCCGUUCGGAUCUGCACU,-1.14
AAGUCCUGUGCUACACAUCGUAUGUACCGAAUCGGGAGGGAAAGGGUUUUUUUGGGAAAGUAUUAUGUUACGCCGUUCGGAUCUGCACUU,-0.617
UCCUGUGCUACACAUCGUAUGUACCGAAUCGGGGUUUUUGGGGUUUGGGGUUUUUGGGGAAAGUAUUAUGUUACGCCGUUCGGAUCUGCA,-0.221
AUAUGAGUAAAAUCUGUCCCUUUUUCCCCCUUUGAAUGAGGUCUUCCAUGUUUGAGGGAAAGUCUUGCACUAUUGCAUAUAUUUUGGGGA,0.707

# Sample 4
# Target: RNA binding protein fox-1 homolog 2, RRM domain, GST-SBP tag (RBFOX2, Homo sapiens, UniProt O43251-10, residues 100-194)
# Method: RNA Bind-n-Seq
# Form: RNA
# Matrix: in vitro
# Concentration: 365 nM
# Notes: natural RNA segment, single round, ends assumed
# Relative to: no-protein control
# Reading: higher = stronger binding
# All sequences stand within: GGGAGUUCUACAGUCCGACGAUC … UGGAAUUCUCGGGUGCCAA
# Target sequence (chain): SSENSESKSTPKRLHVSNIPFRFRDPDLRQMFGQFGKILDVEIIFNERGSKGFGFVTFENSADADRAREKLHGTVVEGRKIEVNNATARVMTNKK
Oligonucleotide,RBNS enrichment (R)
GCCGCAUAUUCCCAUGGGCAUAUUCCCAUGCUUUCUCAAAUAGACUACUGUGAUAAAAAUGAACUCAAUAUGUAGUAGCUUAUACUUUUCUCCAGUAUAUUGUUGGUCAC,0.564
CACGAGAUUCACUCAUUGGAUUUAUGCAGUGCCCUGUCUGUAUAAAAACUCUUAAGAGUUCCUUUAUAUCAUAUUCUUCAGAGCCAACAUUUGUCCUCAAAGCAACGUUU,0.353
ACAGAUCUUUGCCAGUGGUUGGCCCUGAUUGAAAACCUGUUUGAAACAGACUGUGUAGGAAAAAUCAGGAUUAAAGAGUGCUGCCUUUAUGGCUCCUUCUUCAGAAUAGG,0.359
ACCAGGGAGUUUGGUGAAGCUAAAGGAGUCAUAGGAGACUUGCAGUGGCUGGAUGUUCUCACGCCUGGCUCCGUUCUGCCUGUCUGGAGGCCUGGUCUGCUGGUCCACCU,0.385
UGGGUAAGGAACCAAAGCUCUCUUGGCUAUAGCCAGCCUCCUCAUUGAAGGGUGUUUUAGGGUAUCUGCCCACAGAUUUUCUCCAAACAAUUGGGAAGUGCCUAGAGUCC,0.282
UUUCUUGUGCUGACUAACUAUAAGCAUGAUCUUGUUAAUGCAUUUUUGAUGGGAAGAAAAGGUACAUGUUUACAAAGAGGUUUUAUGAAAAGAAUAAAAAUUGACUUCUU,11.9
CACUGGGAGCUCAAAAUUUGCCUCCCUGUUAGUCUUUAAUAACUGAGUAGAGUAGCUUUUUUAUUCUUAGAUUAUAGUGAUAUUCUGUAGUGCUUCAAAUACUUAGAAUU,0.541
GAAUUGGAUCCAGGGGACCUGGGCUCAUUCUUCUUGGCUCACCAACCCUGCAGGCCUCAUCUUUCCCAAAACCCACUUUGUCUUGGUGGGAGUGGGUCCGCGCUGCUCUG,0.522
CCAGCACCAAGCAAGUGCCUGGCACAUAGUCUGUGCCCUUAACAUUUGUAGAAAGGAGCUCACCAGCUCUGUCAGUGUUUAGUUUCUUCAUCUAUUAAACAGGGUUGGUU,0.327
GACUUACCUGCGCAGAUCUGGAAGCCUUGAACUCGGAGUGCUGACUCUGCUACAUGGUACAGCUACCGCUAGACCUACAACUUAUGUACACAGUUGAUUUUGAUGUAUUU,0.54
AGUUCAACCAUUGUGGAAGUCAGUGUGGCGAUUCCUCAGGGAUCUAGAACUGGAAACACCAUUUGACCCAGCCAUCCCAUUACUGGGUAUAUACCCAAAGGACUAUAAAU,0.239
UUUGUUUGGUAACUGUUGAGGAAUAAAGGCUUUUUAACCCAUUUUUGAAGAUGGUGAAGUUUGGAGAACAAAUUUUAAAACCAUCAGUCAGAUGAGAUUUUUCUAGAUUG,0.709

# Repeated from above (sample 1):
Modification,mean fluorescence intensity
2'F-ANA at 3 4 6 7 9 11,559 a.u.
2'F-ANA at 1 3 4 5 7 8 9 10 12 13 15,50.9 a.u.
2'F-ANA at 5 6 10 12 13,152 a.u.
2'F-ANA at 5 6 7 9 11 12 15,107 a.u.
2'F-ANA at 5 6 8 9 11 12 14 15,49.6 a.u.
